Experimental data from different studies.
Numbered parts are unrelated; each lists some results of a single study.

Block 1 — technique: universal PBM; form: double-stranded DNA, one strand shown; medium: in vitro; tested at: 600 nM; reading: higher = stronger binding; measurement: E-score
Target: Sal-like protein 4, full length isoform A (SALL4, Homo sapiens, UniProt Q9UJQ4, residues 1-1053)
Sequence of UniProt Q9UJQ4 (whole entry, looked up): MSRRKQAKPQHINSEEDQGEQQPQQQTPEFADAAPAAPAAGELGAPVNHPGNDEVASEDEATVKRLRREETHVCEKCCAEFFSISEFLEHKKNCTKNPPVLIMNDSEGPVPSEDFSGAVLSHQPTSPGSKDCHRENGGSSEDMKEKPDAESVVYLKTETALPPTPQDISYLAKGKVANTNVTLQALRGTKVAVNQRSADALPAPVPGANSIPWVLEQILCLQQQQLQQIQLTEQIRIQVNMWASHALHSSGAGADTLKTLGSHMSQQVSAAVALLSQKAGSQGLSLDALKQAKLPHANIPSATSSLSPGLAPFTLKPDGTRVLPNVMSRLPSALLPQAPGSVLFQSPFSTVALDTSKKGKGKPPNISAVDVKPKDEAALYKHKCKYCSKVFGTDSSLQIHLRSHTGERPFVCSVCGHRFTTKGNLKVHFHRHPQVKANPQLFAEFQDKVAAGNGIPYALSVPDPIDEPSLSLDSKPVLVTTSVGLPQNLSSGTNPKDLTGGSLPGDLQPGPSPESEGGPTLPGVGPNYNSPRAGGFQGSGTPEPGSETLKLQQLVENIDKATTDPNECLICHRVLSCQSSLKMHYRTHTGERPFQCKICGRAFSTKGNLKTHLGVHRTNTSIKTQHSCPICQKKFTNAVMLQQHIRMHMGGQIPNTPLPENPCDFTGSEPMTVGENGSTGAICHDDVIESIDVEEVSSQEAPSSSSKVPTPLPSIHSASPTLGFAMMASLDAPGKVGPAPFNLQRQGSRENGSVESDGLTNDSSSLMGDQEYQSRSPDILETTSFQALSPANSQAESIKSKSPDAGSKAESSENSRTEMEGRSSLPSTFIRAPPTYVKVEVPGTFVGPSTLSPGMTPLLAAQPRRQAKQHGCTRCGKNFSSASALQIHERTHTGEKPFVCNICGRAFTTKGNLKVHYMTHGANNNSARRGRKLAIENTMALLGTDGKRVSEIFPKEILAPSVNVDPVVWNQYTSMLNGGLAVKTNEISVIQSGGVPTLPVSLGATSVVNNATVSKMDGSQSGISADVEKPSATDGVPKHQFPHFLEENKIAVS
Notes: 8-mer, flanks averaged, mean of replicates
ATGTTACG: 0.136
ACTGTAGA: 0.104
GTAAAAAA: 0.284
AGGGTTTC: -0.0927
GGGCCGAC: -0.343

Block 2 — technique: RNA Bind-n-Seq; form: RNA; medium: in vitro; tested at: not given; baseline: input RNA pool; reading: higher = stronger binding; measurement: bound/input enrichment
Target: RING finger protein unkempt homolog, zinc fingers 1-6, GST-SBP tag (UNK, Homo sapiens, UniProt Q9C0B0, residues 30-357)
Sequence of UniProt Q9C0B0 (30-357, looked up): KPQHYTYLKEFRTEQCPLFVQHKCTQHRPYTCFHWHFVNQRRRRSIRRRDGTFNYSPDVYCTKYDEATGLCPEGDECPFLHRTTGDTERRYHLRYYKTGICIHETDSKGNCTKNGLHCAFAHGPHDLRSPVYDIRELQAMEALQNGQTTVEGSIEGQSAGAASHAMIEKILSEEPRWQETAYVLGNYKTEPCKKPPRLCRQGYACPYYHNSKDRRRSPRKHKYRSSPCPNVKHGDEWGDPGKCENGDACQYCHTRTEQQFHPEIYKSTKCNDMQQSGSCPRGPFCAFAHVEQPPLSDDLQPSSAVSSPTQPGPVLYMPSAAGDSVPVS
Notes: RNA with constant flanks, human-mouse chimeric sites, ends assumed
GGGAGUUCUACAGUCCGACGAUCUAAGUCCUGUGCCAGCACUUCGCUCAUAAAGUUUUAAAUUCAAGAAAAAUAGUGUUUGUUUCCUGAUUUUUGUAUUCAAUACUUUGCCUAGUAUGUAACUCACUCUUACUGAUAAUAAAACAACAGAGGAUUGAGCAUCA: 1.7 ratio
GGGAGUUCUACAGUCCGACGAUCAUAAAGGCUAUGUUGAGUGGCCCAGGUCAGUUUGCUGAGAAUGAAACCAACGAGGUCAAUUUUAGAGAGAUCCCCUCACAUGUGCUAUCGAAAGUAUGCAUGUAUUUUACCUACAAGGUCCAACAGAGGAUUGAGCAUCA: 0.194 ratio
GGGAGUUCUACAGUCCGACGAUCCACUCGAGGGCUGCCGUUUUCUGUUUCUCCCUGGGCUGCGGAAAGCCAGAAGAUUUUAUCUAGCUUAUACAAGGCUGCUGGUGUUCCCUCUUUUUUUCCACGAGGGUUUUUUUUCCAGCACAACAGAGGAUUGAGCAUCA: 0.356 ratio
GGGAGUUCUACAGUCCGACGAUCAAACAUCUGUCUUUAAGCAUUCCAAGCGAGAAUGCUGGGGUGAUCAUUGUUGCCCAUGUGCCUUCUGACUGAGCUUUAAUGCUGUUCAUCCUUGAUGCUUUCCUUCACUCCAGAAUUGUUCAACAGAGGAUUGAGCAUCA: 0.167 ratio
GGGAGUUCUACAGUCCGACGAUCAUCAAAUAUUUUGGGGACAUCAUUAGUGUGGGACAGAGACUGUUGCAAGGAGCUCGGAUCUUAGGGAUUCCAGUUAUUGUAACAGAACAAUACCCCAAAGGACUUGGCAGCACCGUUCAACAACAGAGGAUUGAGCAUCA: 0.177 ratio

Block 3 — technique: protein binding microarray; form: double-stranded DNA, one strand shown; medium: in vitro; tested at: not given; baseline: not given; reading: higher = stronger binding; measurement: E-score
Target: Histone acetyltransferase KAT6A, both winged helices, GST fusion (KAT6A, Homo sapiens, UniProt Q92794, residues 1-181)
Notes: 8-mer, flanks averaged, mean of 2 arrays, mostly near background
Construct (chain): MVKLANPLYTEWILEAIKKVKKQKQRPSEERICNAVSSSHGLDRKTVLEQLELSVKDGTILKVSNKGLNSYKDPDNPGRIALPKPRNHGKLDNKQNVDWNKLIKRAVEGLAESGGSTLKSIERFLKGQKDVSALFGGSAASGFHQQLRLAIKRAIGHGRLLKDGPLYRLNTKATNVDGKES
AAACTCGA: -0.196
GAACCGTA: 0.211
AACATTTG: -0.122
AACAGGAG: -0.23
AGATATAT: -0.00043
TGCCGCAA: 0.188

Single results of other studies
PhoQ, residues 284 288 289 292 302 303 TLASMF
fold induction (PhoP, residues 12 14 15 18 19 IQSYL (Escherichia coli, UniProt P23836); Sort-seq, refers to: YFP reporter; E. coli; PhoQ-PhoP variant library, added: 10 µM Mg2+; baseline: high Mg2+ state, higher = stronger signaling): 3.78

Some of these lines once more (block 1):
AGGGTTTC: -0.0927
